Experimental data pooled from the literature.
Protocols differ between the studies behind these lines. Numbers after ± are the reported error.
NR1I2: Nuclear receptor subfamily 1 group I member 2 (NR1I2, Homo sapiens, UniProt O75469)
Sequence of UniProt O75469 (whole entry, looked up): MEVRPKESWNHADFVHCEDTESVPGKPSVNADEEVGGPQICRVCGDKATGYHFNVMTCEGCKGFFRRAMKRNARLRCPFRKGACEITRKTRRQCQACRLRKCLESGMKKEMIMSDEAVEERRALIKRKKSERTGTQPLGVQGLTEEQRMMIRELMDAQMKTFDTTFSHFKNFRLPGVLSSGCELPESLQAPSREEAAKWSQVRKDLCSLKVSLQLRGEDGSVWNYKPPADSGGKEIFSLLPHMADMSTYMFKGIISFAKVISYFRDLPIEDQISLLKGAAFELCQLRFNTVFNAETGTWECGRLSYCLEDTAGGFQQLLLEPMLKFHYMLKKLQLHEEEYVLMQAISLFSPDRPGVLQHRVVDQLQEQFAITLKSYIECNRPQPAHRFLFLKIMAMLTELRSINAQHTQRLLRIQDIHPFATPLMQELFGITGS
Sequence of UniProt P09237 (whole entry, looked up): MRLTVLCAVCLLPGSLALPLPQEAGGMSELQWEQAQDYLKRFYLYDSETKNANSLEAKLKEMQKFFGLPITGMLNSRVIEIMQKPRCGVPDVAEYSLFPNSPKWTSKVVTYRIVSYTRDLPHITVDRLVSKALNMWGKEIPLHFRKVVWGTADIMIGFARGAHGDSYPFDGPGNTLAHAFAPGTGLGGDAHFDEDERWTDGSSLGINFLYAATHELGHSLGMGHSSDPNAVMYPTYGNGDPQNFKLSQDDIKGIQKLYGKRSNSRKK
Sequence of UniProt Q16696 (whole entry, looked up): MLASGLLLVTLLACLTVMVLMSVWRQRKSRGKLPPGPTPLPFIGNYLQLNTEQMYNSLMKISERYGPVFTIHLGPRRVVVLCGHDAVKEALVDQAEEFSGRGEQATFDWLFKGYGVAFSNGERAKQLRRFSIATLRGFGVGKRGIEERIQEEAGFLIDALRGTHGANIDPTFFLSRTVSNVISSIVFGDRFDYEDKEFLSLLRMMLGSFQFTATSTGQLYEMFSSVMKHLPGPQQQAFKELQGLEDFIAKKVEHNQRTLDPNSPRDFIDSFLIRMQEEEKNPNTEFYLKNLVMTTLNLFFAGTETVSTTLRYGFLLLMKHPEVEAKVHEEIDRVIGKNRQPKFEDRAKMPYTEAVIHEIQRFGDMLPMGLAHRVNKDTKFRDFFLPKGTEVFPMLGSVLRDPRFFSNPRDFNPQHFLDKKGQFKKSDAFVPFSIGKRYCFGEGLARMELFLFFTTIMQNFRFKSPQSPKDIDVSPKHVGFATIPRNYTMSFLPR
Sequence of UniProt Q95LD9 (whole entry, looked up): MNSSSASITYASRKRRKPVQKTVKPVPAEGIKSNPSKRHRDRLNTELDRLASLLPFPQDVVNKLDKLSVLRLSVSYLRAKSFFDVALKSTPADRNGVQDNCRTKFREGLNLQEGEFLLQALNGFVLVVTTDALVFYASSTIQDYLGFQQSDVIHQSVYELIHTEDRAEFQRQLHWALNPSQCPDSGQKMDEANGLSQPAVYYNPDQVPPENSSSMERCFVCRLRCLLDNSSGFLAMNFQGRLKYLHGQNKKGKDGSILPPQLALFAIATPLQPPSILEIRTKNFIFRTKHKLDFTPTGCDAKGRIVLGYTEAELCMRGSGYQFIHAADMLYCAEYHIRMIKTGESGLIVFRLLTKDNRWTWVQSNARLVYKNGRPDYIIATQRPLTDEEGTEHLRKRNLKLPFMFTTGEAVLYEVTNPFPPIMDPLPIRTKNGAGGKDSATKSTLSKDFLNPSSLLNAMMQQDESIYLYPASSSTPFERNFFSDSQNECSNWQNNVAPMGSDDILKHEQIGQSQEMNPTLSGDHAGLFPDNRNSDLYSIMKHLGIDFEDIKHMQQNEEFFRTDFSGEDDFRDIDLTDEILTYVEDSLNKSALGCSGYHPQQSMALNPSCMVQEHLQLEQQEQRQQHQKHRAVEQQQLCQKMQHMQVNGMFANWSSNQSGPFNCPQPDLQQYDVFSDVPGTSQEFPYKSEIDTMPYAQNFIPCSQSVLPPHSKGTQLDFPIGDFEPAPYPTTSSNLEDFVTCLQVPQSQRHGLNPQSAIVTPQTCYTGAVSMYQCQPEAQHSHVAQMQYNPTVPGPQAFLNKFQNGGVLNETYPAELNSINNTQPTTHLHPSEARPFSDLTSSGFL
Sequence of UniProt P05182 (whole entry, looked up): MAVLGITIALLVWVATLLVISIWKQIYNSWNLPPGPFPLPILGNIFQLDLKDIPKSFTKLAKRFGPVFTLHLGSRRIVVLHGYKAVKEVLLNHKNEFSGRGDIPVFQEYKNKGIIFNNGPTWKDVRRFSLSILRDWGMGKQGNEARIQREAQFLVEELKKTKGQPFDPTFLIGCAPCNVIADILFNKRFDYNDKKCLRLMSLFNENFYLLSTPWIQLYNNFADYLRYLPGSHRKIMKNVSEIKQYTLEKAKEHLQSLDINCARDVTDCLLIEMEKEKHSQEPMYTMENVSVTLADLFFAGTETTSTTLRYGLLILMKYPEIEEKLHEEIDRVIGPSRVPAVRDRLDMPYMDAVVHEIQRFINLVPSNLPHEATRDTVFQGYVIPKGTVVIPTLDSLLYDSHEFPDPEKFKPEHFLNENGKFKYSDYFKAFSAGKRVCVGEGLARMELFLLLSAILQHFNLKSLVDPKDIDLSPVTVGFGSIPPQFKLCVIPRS
Sequence of UniProt P11509 (whole entry, looked up): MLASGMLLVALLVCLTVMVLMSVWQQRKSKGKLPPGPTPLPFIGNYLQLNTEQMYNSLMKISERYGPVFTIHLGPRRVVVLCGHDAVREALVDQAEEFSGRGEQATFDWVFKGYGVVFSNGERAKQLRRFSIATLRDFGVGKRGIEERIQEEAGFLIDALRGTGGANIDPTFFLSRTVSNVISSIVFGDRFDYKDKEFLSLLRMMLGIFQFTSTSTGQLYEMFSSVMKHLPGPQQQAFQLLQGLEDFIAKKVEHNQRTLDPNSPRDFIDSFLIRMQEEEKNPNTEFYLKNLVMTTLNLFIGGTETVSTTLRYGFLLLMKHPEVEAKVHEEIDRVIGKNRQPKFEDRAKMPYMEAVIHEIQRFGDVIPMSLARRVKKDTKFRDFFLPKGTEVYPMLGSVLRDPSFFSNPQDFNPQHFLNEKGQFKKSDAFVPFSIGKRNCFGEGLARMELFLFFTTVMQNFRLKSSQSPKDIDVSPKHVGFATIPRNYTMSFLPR

Structure (SMILES) | target or system | assay | system | conditions | how to read | endpoint | result
Clc1ccc(-c2ccc(Cl)c(Cl)c2Cl)cc1 | NR1I2 | reporter gene, agonist, luciferase | COS-7 | 24 h | baseline: DMSO | fold induction | 1 ± 0.2 fold
c1cn[nH]c1 | Cytochrome P450 2E1 (Cyp2e1, Rattus norvegicus, UniProt P05182) | enzyme activity, inhibitor | liver microsomes | 10 min, 37 °C, added: chlorzoxazone |  | Ki | 35500 nM
C=C(C)[C@@H]1CCC(C)=C[C@H]1c1c(O)cc(CCCCC)cc1O | Cytochrome P450 2A6 (CYP2A6, Homo sapiens, UniProt P11509) | cotinine to COX formation, inhibitor | microsomes of overexpressing HEK293 cells | 10 µM, 30 min, pH 7.4, added: cotinine 1 mM |  | inhibition | 25%
Oc1ccc(/C=C/c2cc(O)cc(O)c2)cc1 | UGT1A7 human recombinant | substrate, measured: 3-glucuronide |  | pH 7.4 |  | Km | 52.3 ± 42 µM
[123I]c1cncc(OC[C@@H]2CCN2)c1 |  | SPECT | human, frontal lobe | intravenous bolus, 2.1 mCi | baseline: tissue over plasma | tissue/plasma ratio | 12.1
C[C@H]1CNCCc2ccc(Cl)cc21 |  |  | Sprague-Dawley rat, male, plasma | subcutaneous, 3 mg/kg, 15 min |  | plasma concentration | 99.2 ± 16 ng/mL
C#CCOCCc1cccc2ccccc12 | Cytochrome P450 2A13 (Homo sapiens, UniProt Q16696) | binding, absorbance |  | pH 7.4 |  | Kd | 1100 nM
Clc1ccc(Cl)c(-c2cc(Cl)ccc2Cl)c1 | PXR (polar bear) | reporter gene, agonist, luciferase | COS-7 | 24 h | baseline: DMSO | fold induction | 1 ± 0.2 fold
Clc1ccc(-c2cc(Cl)c(Cl)c(Cl)c2Cl)cc1Cl | Aryl hydrocarbon receptor (AHR, Delphinapterus leucas, UniProt Q95LD9) | binding, competitor |  | in vitro expressed receptor, added: [3H]TCDD |  | Ki | 309 nM
O=c1cc(-c2ccccc2)oc2ccc3ccccc3c12 | NR1I2 | reporter gene, agonist, luciferase | COS-7 | 24 h | baseline: DMSO | fold induction | 2.8 ± 0.4 fold
CC[N+]1=C(C=CC=CC=C2N(CCCCCC(=O)NCCN3C(=O)CC(SC[C@@H](NC(=O)[C@@H](CCCNC(=N)N)NC(=O)[C@@H](CCCNC(=N)N)NC(=O)[C@@H](CCCNC(=N)N)NC(=O)[C@@H](CCCNC(=N)N)NC(=O)[C@@H](CCCNC(=N)N)NC(=O)[C@@H](CCCNC(=N)N)NC(=O)[C@@H](CCCNC(=N)N)NC(=O)[C@@H](CCCNC(=N)N)NC(=O)[C@@H](CCCNC(=N)N)NC(=O)[C@H](CC(C)C)NC(=O)[C@H](CCCCN)NC(=O)[C@H](CC(C)C)NC(=O)[C@H](CCC(N)=O)NC(=O)[C@H](CC(C)C)NC(=O)[C@H](CCCNC(=N)N)NC(=O)CCCCCNC(=O)[C@@H](CCC(=O)O)NC(=O)[C@@H](CCC(=O)O)NC(=O)[C@@H](CCC(=O)O)NC(=O)[C@@H](CCC(=O)O)NC(=O)[C@@H](CCC(=O)O)NC(=O)[C@@H](CCC(=O)O)NC(=O)[C@@H](CCC(=O)O)NC(=O)[C@@H](CCC(=O)O)NC(=O)[C@H](N)CCC(=O)O)C(N)=O)C3=O)c3ccc(S(=O)(=O)O)cc3C2(C)C)C(C)(C)c2cc(S(=O)(=O)[O-])ccc21 (stereo partly shown) | Matrilysin (MMP7, Homo sapiens, UniProt P09237) | substrate |  | 5 µM, 2 h |  | cleavage | 23.4 ± 2.5%
CSCC[C@@H]1NC(=O)[C@H](CC(=O)O)NC(=O)CNC(=O)[C@H](CCCNC(=N)N)NC(=O)[C@H](C)NC(=O)[C@H](CCC(=O)O)NC(=O)[C@H](CCCNC(=N)N)NC(=O)[C@@H]2CSSC[C@@H]3NC(=O)[C@H](CO)NC(=O)[C@H]([C@@H](C)O)NC(=O)[C@@H]4CCCN4C(=O)[C@H](C)NC(=O)[C@H](Cc4c[nH]c5ccccc45)NC(=O)[C@H](CC(=O)O)NC(=O)CNC(=O)[C@H](CCCNC(=N)N)NC(=O)CNC(=O)[C@H](CCC(N)=O)NC(=O)[C@@H]4CCCN4C(=O)[C@@H](NC(=O)CNC(=O)C(C)F)CSSC[C@H](NC(=O)CNC(=O)[C@H](C)NC(=O)[C@H](CC(C)C)NC(=O)[C@H](CSSC[C@@H](C(=O)NCC(N)=O)NC(=O)[C@H]([C@@H](C)O)NC(=O)[C@H](CCCNC(=N)N)NC(=O)[C@@H]4CCCN4C1=O)NC(=O)[C@H](CC(=O)O)NC(=O)[C@H](CO)NC(=O)[C@H](CC(=O)O)NC(=O)[C@H](CCC(N)=O)NC(=O)[C@H](CO)NC3=O)C(=O)N[C@@H](C(C)C)C(=O)N2 (stereo partly shown) [fluorine-18 labelled] |  |  | nude mice U-87 MG xenograft, lungs | intravenous, 1 h |  | tissue uptake | 0.94 ± 0.08 %ID/g
CN[C@@](C)(C[18F])C(=O)O | SK-OV-3 tumour model |  | host not given, liver | 15 min, tumour-bearing |  | tracer uptake | 4.7 %ID/g

Excerpt of the above:
Structure (SMILES) | target or system | assay | system | conditions | how to read | endpoint | result
Clc1ccc(Cl)c(-c2cc(Cl)ccc2Cl)c1 | PXR (polar bear) | reporter gene, agonist, luciferase | COS-7 | 24 h | baseline: DMSO | fold induction | 1 ± 0.2 fold
